Published values pooled from the literature.
Compare with care: the assays were run in different laboratories.
Organism: Streptococcus pneumoniae

c1ccc(CCNC2CCCc3c2[nH]c2ccc(C4CCCCC4)cc32)cc1 (centres unmarked)  MIC (broth microdilution; serotype 4 T4, supplemented C+Y medium): 1.3 µg/mL
CN[C@@H]1[C@H](O)[C@H](NC)[C@H]2O[C@]3(O)[C@H](O[C@@H]2[C@H]1O)O[C@H](C)C[C@H]3NC(=O)Cc1ccccc1  MIC (microbial growth, broth dilution; DAW27): 100 µg/mL
c1ccc2c(c1)nc(CNCC13CC4CC(CC(C4)C1)C3)n2CC1CCCCC1  MIC (ATCC 49619): 2 µg/mL
CC[C@H](C)[C@@H]1NC(=O)[C@H](CO)NC(=O)C(C)(CCCCN)NC(=O)[C@@H]2CSSC[C@@H](C(=O)N[C@@H](Cc3ccc(O)cc3)C(N)=O)NC(=O)[C@H](CCCCN)NC(=O)[C@@H]3CSSC[C@H](NC(=O)[C@H](CCCNC(=N)N)NC(=O)C(C)(CC(C)C)NC(=O)[C@H](CC(=O)O)NC(=O)[C@H](CC(=O)O)NC(=O)[C@H](CCC(=O)O)NC(=O)[C@H](CC(N)=O)NC(=O)[C@H](Cc4c[nH]c5ccccc45)NC(=O)[C@@H]4CCCN4C(=O)CNC(=O)[C@H](CC(N)=O)NC(=O)[C@@H](NC(=O)CNC(=O)[C@H](Cc4ccccc4)NC(=O)CN)CSSC[C@H](NC(=O)[C@H](Cc4ccc(O)cc4)NC(=O)CNC(=O)CNC(=O)[C@H](CCCCN)NC(=O)[C@H](Cc4ccc(O)cc4)NC(=O)CNC(=O)[C@H](CCCCN)NC1=O)C(=O)N[C@@H](C)C(=O)N[C@@H](CCCCN)C(=O)NCC(=O)NCC(=O)N[C@@H](Cc1ccccc1)C(=O)N[C@@H](C(C)C)C(=O)N3)C(=O)N[C@@H](Cc1c[nH]cn1)C(=O)NC(C)(C)C(=O)N[C@@H](Cc1c[nH]cn1)C(=O)N2 (some centres unmarked)  MIC (broth microdilution; BS-444; 18 h): 0.5 µM
CN[C@@H]1[C@H](O)[C@H](NC)[C@H]2O[C@]3(O)[C@H](O[C@@H]2[C@H]1O)O[C@H](C)C[C@H]3NC(=O)Cc1cscn1  MIC (microbial growth, broth dilution; DAW27): 12.5 µg/mL
Oc1c(Br)cc(Br)c2nc3ccc(C(F)(F)F)cc3nc12  MIC (broth microdilution; 6303): 0.39 µM
Oc1c(Br)cc(Br)c2nc3cc(Cl)ccc3nc12  MIC (broth microdilution; 6303; 16 h, 37 °C): 0.3 µM
CC[C@H](C)[C@@H]1NC(=O)[C@H](CO)NC(=O)C(C)(CCCCN)NC(=O)[C@@H]2CSSC[C@@H](C(=O)N[C@@H](Cc3ccc(O)cc3)C(N)=O)NC(=O)[C@H](CCCCN)NC(=O)[C@@H]3CSSC[C@H](NC(=O)[C@H](CCCNC(=N)N)NC(=O)C(C)(CC(C)C)NC(=O)[C@H](CC(=O)O)NC(=O)[C@H](CC(=O)O)NC(=O)[C@H](CCC(=O)O)NC(=O)[C@H](CC(N)=O)NC(=O)[C@H](Cc4c[nH]c5ccccc45)NC(=O)C(C)(CC)NC(=O)CNC(=O)[C@H](CC(N)=O)NC(=O)[C@@H](NC(=O)CNC(=O)[C@H](Cc4ccccc4)NC(=O)CN)CSSC[C@H](NC(=O)[C@H](Cc4ccc(O)cc4)NC(=O)CNC(=O)CNC(=O)[C@H](CCCCN)NC(=O)[C@H](Cc4ccc(O)cc4)NC(=O)[C@H]4CCCN4C(=O)[C@@H]4CCCN4C1=O)C(=O)N[C@@H](C)C(=O)N[C@@H](CCCCN)C(=O)N1CCC[C@@H]1C(=O)NCC(=O)N[C@@H](Cc1ccccc1)C(=O)N[C@@H](C(C)C)C(=O)N3)C(=O)N[C@@H](Cc1c[nH]cn1)C(=O)NC(C)(C)C(=O)N[C@@H](Cc1c[nH]cn1)C(=O)N2 (some centres unmarked)  MIC (broth microdilution; D39; 18 h): 2 µM
CC[C@H](C)[C@@H]1NC(=O)[C@H](CC(C)C)NC(=O)[C@@H](NC(=O)[C@H](CCCNC(=N)N)NC(=O)[C@@H](NC(=O)CNC(=O)[C@@H]2CCCN2C(=O)[C@@H]2CCC(=O)NCC(=O)N[C@@H](CO)C(=O)N[C@@H](CCCNC(=N)N)C(=O)NCC(=O)N[C@@H](Cc3c[nH]c4ccccc34)C(=O)NCC(=O)N[C@@H](Cc3ccccc3)C(=O)N2)C(C)C)CSSC[C@@H](C(=O)N[C@@H](CC(=O)O)C(=O)O)NC(=O)[C@H](Cc2c[nH]c3ccccc23)NC1=O  MIC (broth microdilution; ATCC 49619, penicillin intermediate; overnight, 37 °C): 64 µg/mL
CC[C@H](C)[C@H](NC(=O)[C@H](CCCCN)NC(=O)[C@H](CCCCN)NC(=O)[C@H](Cc1ccccc1)NC(=O)[C@H](Cc1ccccc1)NC(=O)[C@H](CCCCN)NC(=O)[C@H](CCCCN)NC(=O)[C@H](Cc1ccccc1)NC(=O)[C@H](CCCNC(=N)N)NC(=O)[C@@H](N)CCCCN)C(=O)N[C@@H](CCCCN)C(=O)N[C@@H](CCCCN)C(=O)N[C@@H](CO)C(=O)N[C@H](C(=O)N[C@@H](CCCCN)C(=O)N[C@@H](CCCCN)C(=O)N[C@@H](CCCNC(=N)N)C(=O)N[C@H](C(=O)N[C@@H](CCCCN)C(=O)N[C@@H](CCCCN)C(=O)N[C@@H](CC(C)C)C(=O)N[C@@H](Cc1ccccc1)C(=O)N[C@@H](CCCCN)C(=O)N[C@@H](CCCCN)C(=O)N1CCC[C@H]1C(=O)N[C@@H](CCCNC(=N)N)C(=O)N[C@H](C(=O)N[C@H](C(=O)N1CCC[C@H]1C(=O)N[C@H](C(=O)N[C@@H](CO)C(=O)N[C@H](C(=O)N1CCC[C@H]1C(=O)N[C@@H](Cc1ccccc1)C(=O)O)[C@@H](C)CC)[C@@H](C)CC)[C@@H](C)CC)C(C)C)C(C)C)C(C)C  MIC (broth microdilution; ATCC 49619, THY broth; 20 h, 37 °C, 5% CO2): 16 µg/mL
CC[C@H](C)[C@@H]1NC(=O)[C@H](CO)NC(=O)[C@H](CCCCN)NC(=O)[C@@H]2CSSC[C@@H](C(=O)N[C@@H](Cc3ccc(O)cc3)C(N)=O)NC(=O)[C@H](CCCCN)NC(=O)[C@@H]3CSSC[C@H](NC(=O)[C@H](CCCNC(=N)N)NC(=O)[C@H](CC(C)C)NC(=O)[C@H](CC(=O)O)NC(=O)[C@H](CC(=O)O)NC(=O)[C@H](CCC(=O)O)NC(=O)[C@H](CC(N)=O)NC(=O)[C@H](Cc4c[nH]c5ccccc45)NC(=O)C(C)(CC)NC(=O)CNC(=O)[C@H](CC(N)=O)NC(=O)[C@@H](NC(=O)CNC(=O)[C@H](Cc4ccccc4)NC(=O)CN)CSSC[C@H](NC(=O)[C@H](Cc4ccc(O)cc4)NC(=O)CNC(=O)CNC(=O)[C@H](CCCCN)NC(=O)[C@H](Cc4ccc(O)cc4)NC(=O)[C@H]4CCCN4C(=O)[C@@H]4CCCN4C1=O)C(=O)N[C@@H](C)C(=O)N[C@@H](CCCCN)C(=O)N1CCC[C@@H]1C(=O)NCC(=O)N[C@@H](Cc1ccccc1)C(=O)N[C@@H](C(C)C)C(=O)N3)C(=O)N[C@@H](Cc1c[nH]cn1)C(=O)N[C@@H](CC(N)=O)C(=O)N[C@@H](Cc1c[nH]cn1)C(=O)N2 (some centres unmarked)  MIC (broth microdilution; BS-444; 18 h): 1 µM

Some of these lines once more:
CN[C@@H]1[C@H](O)[C@H](NC)[C@H]2O[C@]3(O)[C@H](O[C@@H]2[C@H]1O)O[C@H](C)C[C@H]3NC(=O)Cc1cscn1  MIC (microbial growth, broth dilution; DAW27): 12.5 µg/mL
